Experimental data gathered from unrelated publications.
± gives the spread as reported. Values after ≈ are worked out from the molar mass of the structure shown.

Compound	organism	test	test system	conditions	measurement	result
CCCn1c(O)nnc1SCC(=O)Nc1cc(C(F)(F)F)ccc1Cl	Plasmodium falciparum	parasite growth	Dd2	–	EC50	74.8 ± 22 nM
NCCCC[C@@H]1NC(=O)[C@@H](CCCCN)NC(=O)[C@H](CO)NC(=O)[C@H](Cc2c[nH]c3ccccc23)NC(=O)[C@@H](Cc2c[nH]c3ccccc23)NC(=O)[C@H](Cc2ccccc2)NC(=O)[C@@H](CCCCN)NC1=O	Naegleria fowleri	–	–	trophozoites	IC90	> 16 µg/mL
O=C(CCCN1CC=C(n2c(=O)[nH]c3ccccc32)CC1)c1ccc(F)cc1	Plasmodium falciparum	–	HB3	–	IC50	2510 nM
CC[C@H](C)[C@H](NC(=O)[C@H](C)NC(=O)[C@H](CCCCN)NC(=O)[C@H](CC(C)C)NC(=O)[C@H](C)NC(=O)[C@@H](NC(=O)[C@H](Cc1c[nH]cn1)NC(=O)[C@H](CC(C)C)NC(=O)[C@@H](NC(=O)[C@@H](NC(=O)[C@H](CCCCN)NC(=O)[C@H](C)NC(=O)[C@H](C)NC(=O)[C@H](CO)NC(=O)[C@H](CCCCN)NC(=O)[C@H](Cc1ccccc1)NC(=O)[C@@H](NC(=O)[C@H](CCCCN)NC(=O)[C@H](CC(C)C)NC(=O)[C@H](Cc1ccccc1)NC(=O)[C@H](CO)NC(=O)[C@H](CCCCN)NC(=O)[C@H](Cc1c[nH]c2ccccc12)NC(=O)[C@H](CCCCN)NC(C)=O)[C@@H](C)O)[C@@H](C)O)C(C)C)[C@@H](C)O)C(=O)N[C@@H](CO)C(=O)N[C@@H](CO)C(N)=O	Klebsiella pneumoniae	–	ATCC 700603 (ESBL)	–	MBC90	8 µg/mL (≈ 2.73 µM)
C[C@H]1c2cccc(O)c2C(=O)C2=C(O)[C@]3(O)C(=O)C(C(N)=O)=C(O)[C@@H](N(C)C)[C@@H]3[C@@H](O)[C@@H]21	Plasmodium falciparum	–	3D7	–	IC50	1260 nM
CC(C)[C@@H]1NC(=O)[C@@H](Cc2ccccc2)NC(=O)[C@H](CCCNC(=N)N)NC(=O)[C@@H]([C@H](C)O)NC(=O)[C@H](CC(N)=O)NC(=O)[C@@H](C(C)C)NC1=O	Acanthamoeba castellanii	–	–	trophozoites	IC50	> 16 µg/mL
CC(C)(C)c1cc(C=C(C#N)C#N)cc(C(C)(C)C)c1O	Plasmodium falciparum	–	W2	–	IC50	320 nM
CCCOc1ccccc1-c1nc2sc3c(c2c(=O)[nH]1)CCN(C)C3	Plasmodium falciparum	parasite growth, SYBR Green	3D7 wild type	72 h	EC50	4560 ± 60 nM
CC(C)[C@@H]1NC(=O)[C@@H](CCCNC(=N)N)NC(=O)[C@H]([C@@H](C)O)NC(=O)[C@@H](CCCNC(=N)N)NC(=O)[C@H](Cc2ccccc2)NC(=O)[C@@H](Cc2ccccc2)NC1=O	Acanthamoeba castellanii	–	–	trophozoites	IC50	> 16 µg/mL
COc1cc2nc(N3CCN(C(=O)C4COc5ccccc5O4)CC3)nc(N)c2cc1OC (stereo not shown)	Plasmodium falciparum	–	W2	–	IC50	1260 nM
CC(C)[C@@H]1NC(=O)[C@@H](C(C)C)NC(=O)[C@H](C)NC(=O)[C@H](CO)NC(=O)[C@H](Cc2c[nH]c3ccccc23)NC(=O)[C@@H](Cc2ccc(O)cc2)NC(=O)[C@H](CCCN)NC(=O)[C@H](Cc2c[nH]c3ccccc23)NC1=O	Naegleria fowleri	–	–	trophozoites	IC50	> 16 µg/mL
CCCCN(C)CC#Cc1ccc2[nH]c(C)c(Cl)c(=O)c2c1	Plasmodium falciparum	parasite growth, SYBR Green	3D7 wild type	72 h	EC50	181 ± 26 nM
CC(C)[C@@H]1NC(=O)[C@@H](CC(N)=O)NC(=O)[C@H](Cc2ccccc2)NC(=O)[C@@H](CCCN)NC(=O)[C@H](CCCN)NC(=O)[C@H]([C@@H](C)O)NC(=O)[C@@H](C(C)C)NC(=O)[C@H](C(C)C)NC(=O)[C@@H]([C@H](C)O)NC(=O)[C@@H](C(C)C)NC1=O	Naegleria fowleri	–	–	trophozoites	IC50	> 16 µg/mL
CN1CCC(=C2c3ccccc3CC(=O)c3sccc32)CC1	Plasmodium falciparum	–	3D7	–	IC50	3160 nM
COc1nc(NCC(C)C)nc(Oc2ccc(=O)n(Cc3ccccc3)n2)n1	Plasmodium falciparum	parasite growth, SYBR Green	3D7 DHODH E182D	72 h	EC50	5570 ± 640 nM
CCc1cccc(N(C)C(=N)Nc2cccc3ccccc23)c1	Plasmodium falciparum	–	GB4	–	IC50	12600 nM
C#Cc1cccc(C=NNC(=O)c2ccc(Br)c(Br)c2)c1O	Cryptococcus neoformans	time-kill	H99	concentration not given	time to complete kill	3 h
C[C@@H](O)[C@@H]1NC(=O)[C@H](Cc2ccccc2)NC(=O)[C@@H](Cc2ccccc2)NC(=O)[C@H](Cc2ccccc2)NC(=O)[C@@H](CCCN)NC(=O)[C@H](CCCCN)NC(=O)[C@@H](CCCCN)NC1=O	Acanthamoeba castellanii	–	–	trophozoites	IC50	12.9 µg/mL
CNC(=O)c1cc(Cl)cc(C)c1NC(=O)c1cc(Br)nn1-c1ncccc1Cl	Spodoptera litura	–	Brassica oleracea field	25 ppm, 72 h, 5% water-dispersible granule	corrected larval mortality	79.2%
O=C(Nc1cccc(CN2CCN(C(=O)c3cccc(Cl)c3)CC2)c1)c1cccs1	Plasmodium falciparum	parasite growth, SYBR Green	3D7 DHODH E182D	72 h	EC50	846 ± 120 nM
NC(=NCc1ccccc1)NC(=O)c1nc(Cl)c(N)nc1N	Plasmodium falciparum	–	D10	–	IC50	794 nM
CC(C)[C@@H]1NC(=O)[C@@H](CCCCN)NC(=O)[C@H]([C@@H](C)O)NC(=O)[C@@H](CCCCN)NC(=O)[C@H](Cc2c[nH]c3ccccc23)NC(=O)[C@@H](C)NC(=O)[C@@H](C(C)C)NC(=O)[C@@H](C)NC(=O)[C@H](Cc2c[nH]c3ccccc23)NC(=O)[C@@H](Cc2c[nH]c3ccccc23)NC1=O	Acanthamoeba castellanii	–	–	trophozoites	IC50	15.4 µg/mL

Excerpt of the above:
Compound	organism	test	test system	conditions	measurement	result
O=C(CCCN1CC=C(n2c(=O)[nH]c3ccccc32)CC1)c1ccc(F)cc1	Plasmodium falciparum	–	HB3	–	IC50	2510 nM
CC[C@H](C)[C@H](NC(=O)[C@H](C)NC(=O)[C@H](CCCCN)NC(=O)[C@H](CC(C)C)NC(=O)[C@H](C)NC(=O)[C@@H](NC(=O)[C@H](Cc1c[nH]cn1)NC(=O)[C@H](CC(C)C)NC(=O)[C@@H](NC(=O)[C@@H](NC(=O)[C@H](CCCCN)NC(=O)[C@H](C)NC(=O)[C@H](C)NC(=O)[C@H](CO)NC(=O)[C@H](CCCCN)NC(=O)[C@H](Cc1ccccc1)NC(=O)[C@@H](NC(=O)[C@H](CCCCN)NC(=O)[C@H](CC(C)C)NC(=O)[C@H](Cc1ccccc1)NC(=O)[C@H](CO)NC(=O)[C@H](CCCCN)NC(=O)[C@H](Cc1c[nH]c2ccccc12)NC(=O)[C@H](CCCCN)NC(C)=O)[C@@H](C)O)[C@@H](C)O)C(C)C)[C@@H](C)O)C(=O)N[C@@H](CO)C(=O)N[C@@H](CO)C(N)=O	Klebsiella pneumoniae	–	ATCC 700603 (ESBL)	–	MBC90	8 µg/mL (≈ 2.73 µM)
C[C@H]1c2cccc(O)c2C(=O)C2=C(O)[C@]3(O)C(=O)C(C(N)=O)=C(O)[C@@H](N(C)C)[C@@H]3[C@@H](O)[C@@H]21	Plasmodium falciparum	–	3D7	–	IC50	1260 nM
